Experimental data gathered from unrelated publications.
Numbered parts are unrelated; each lists some results of a single study.

Series 1
Target: RNA binding protein fox-1 homolog 2, RRM domain, GST-SBP tag (RBFOX2, Homo sapiens, UniProt O43251-10, residues 100-194)
Technique: RNA Bind-n-Seq
Form: RNA
Sample: in vitro
Tested at: 365 nM
Setting: natural RNA segment, single round, ends assumed
Baseline: no-protein control
Direction: higher = stronger binding
Target sequence (chain): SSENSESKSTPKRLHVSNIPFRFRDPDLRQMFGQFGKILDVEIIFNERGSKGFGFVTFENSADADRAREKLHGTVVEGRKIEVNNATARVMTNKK
`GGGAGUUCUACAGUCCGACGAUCAAAGAAACUGCCUACAGACAUCAUCACAGCAGCCUCCUCACUUGGGUACUACCGUGUGGAAGCUGUGCAUAUGGUAUAUUUUAUUUGUCUUUGUAAAGCGUUAUGUUUUGUGGAAUUCUCGGGUGCCAA`: “RBNS enrichment (R)” 0.372.
`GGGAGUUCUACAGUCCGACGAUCAGGCUUCCCAUUGCUGCUGCUACCGGUUCUCCACAGAUCCCUGUGGUCCGCCAUCGCCGACACACACACACGUCGUAAUGUGGCUAACGCUUGACUCACUUAACACUACUUGGAAUUCUCGGGUGCCAA` — result for “RBNS enrichment (R)”: 0.332.
Under “RBNS enrichment (R)”, `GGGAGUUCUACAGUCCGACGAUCGAGAUUUCUGAUGUUAGAGGGAGAUGGAGAGGCUUCCUGAUGCCUCAUCUGCAGGGUCCUGUGCCUCUGAAGUUCUAGCCAUGAGGUUUCCAGGUAGGACAGCUGCUCCCUGGAAUUCUCGGGUGCCAA` is recorded as 0.356.
Under “RBNS enrichment (R)”, `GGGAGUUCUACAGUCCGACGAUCUUAUUCAUGAGAUUUGUACAAACCCUAUACCGGAAUGGAUGCUUCCCUUCCACCUCCCUGAAAUGUACGUGGAGCCACUCAGAACACAACUGUAUCACUGAGGUAACUCCUGGAAUUCUCGGGUGCCAA` is recorded as 0.235.
`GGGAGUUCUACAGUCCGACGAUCGACCAUCUCAGGGUGGAGCAUUCUGUCUAAGAGAAGAAAGAUAAGGAGGCUCCCACCCACCUCUCCCAAGAGCAGACAUUAAACAUCUUUGUGCUUUGAAGAGAGUGAAUUGGAAUUCUCGGGUGCCAA`: “RBNS enrichment (R)” 0.425.
Under “RBNS enrichment (R)”, `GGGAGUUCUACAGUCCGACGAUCAAGGCCUCUCAGACCCAGAUGUGACGGGGUGUGUGGCCCGAGGAAGCUGGACAGCGGCAGUGGGCCUGCUGAGGCCUUCUCUUGAGGCCUGUGCUCUGGGGGUCCCUUGCUGGAAUUCUCGGGUGCCAA` is recorded as 0.405.
Under “RBNS enrichment (R)”, `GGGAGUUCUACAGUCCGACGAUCUAGCUUAGAAUACUGCAAAGGAUAAGCUAAUUGAAUGCCUUGAAAGUAUUAUCCACUGGUCAGAUGGUCAACUUUUUUCAGUAUUAUUUAUAGUUGGCACUUGAUUGCAGUGGAAUUCUCGGGUGCCAA` is recorded as 3.2.
`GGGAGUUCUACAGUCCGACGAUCAUGCAUACAUUACAUACCUAUAUAUAAACUUGUGGUAUAACCAUAGACCAUAGCUGCAGGUUAACCAAUUAGUUACUAUCGUAGAGUAAUAUAUAUUCAGAAUAAUAAACUGGAAUUCUCGGGUGCCAA` — result for “RBNS enrichment (R)”: 0.794.
Under “RBNS enrichment (R)”, `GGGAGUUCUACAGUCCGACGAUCGCUUUCAGUACUCGUGUUAAUAUGUUUCUAUGGCAACUCUGAGGUCAGUGGUUUAGAAAUGAGAUACCAGUGUUAAUGAAAAGUGUGUGCUCUUUGCUUUUGCAUGGCUUUGGAAUUCUCGGGUGCCAA` is recorded as 1.24.
`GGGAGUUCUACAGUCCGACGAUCACAAAAUCUGAACUCUCAAAAGUCUAUUUUUUUAACUGAAAAUGUAAAUUUAUAAAUAUAUUCAGGAGUUGGAAUGUUGUAGUUACCUACUGAGUAGGCGGCGAUUUUUGUGGAAUUCUCGGGUGCCAA` — result for “RBNS enrichment (R)”: 0.605.
Under “RBNS enrichment (R)”, `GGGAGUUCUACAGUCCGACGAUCAGUGGAAUAUUGUUCACAGGCAGCUCUUUCUGACCCUGGCUCUUGAGUCACAUAAGGAAACCACCUUUGACCUCUCUGACACUUUUGUCUUUAAGCCACGUCUCUGAAAUUGGAAUUCUCGGGUGCCAA` is recorded as 0.198.
`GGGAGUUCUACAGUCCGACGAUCGCAUAAGUCAUAGCUCUAUUCUUAGUGUCAUAAAGUGUAGCUAAUUUAUAAGCUCUAAGUAAUCAGCUUUAUCUAAUUUGAGGGCAUUAAAAUUACUGCCUAGAACUUUGUGGAAUUCUCGGGUGCCAA`: “RBNS enrichment (R)” 0.441.

Series 2
Target: Histone acetyltransferase KAT6A, both winged helices, GST fusion (KAT6A, Homo sapiens, UniProt Q92794, residues 1-181)
Technique: protein binding microarray
Form: double-stranded DNA, one strand shown
Sample: in vitro
Tested at: not given
Setting: 8-mer, flanks averaged, mean of 2 arrays, mostly near background
Baseline: not given
Direction: higher = stronger binding
Target sequence (chain): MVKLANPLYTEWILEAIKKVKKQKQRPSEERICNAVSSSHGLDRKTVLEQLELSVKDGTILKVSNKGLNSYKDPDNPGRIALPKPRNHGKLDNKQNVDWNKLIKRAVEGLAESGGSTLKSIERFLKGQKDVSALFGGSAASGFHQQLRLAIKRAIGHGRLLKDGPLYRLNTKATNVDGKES
With `AATGCCCA` the E-score was -0.283.
`ACCAGTAA` gave an E-score of -0.0787.
The E-score of `AACCTGAA` is reported as -0.184.
`ATAGCTTA` has an E-score of -0.0383.
`GCGTCAAC` has an E-score of 0.256.
`CCTTTATA` gave an E-score of -0.13.
`ACTATCCA` gave an E-score of -0.0302.
The E-score of `GACAAGGC` is reported as 0.0336.
`ACCGTTTG` gave an E-score of 0.114.
`CAAGTTGC` gave an E-score of 0.0428.
With `ACCTATAG` the E-score was -0.185.
With `GCAGTCCC` the E-score was 0.0241.
`CCTGTCCG` gave an E-score of 0.0645.
For `TAGGTGGA`, the E-score was -0.278.
With `AAAAACGG` the E-score was 0.186.
The E-score of `AGGGTGGA` is reported as -0.284.
`GGCCACCA` gave an E-score of -0.0698.
`AGAGACCC` gave an E-score of -0.0229.
The E-score of `CTGACTTA` is reported as -0.179.
For `ACCCGACA`, the E-score was 0.0934.

Series 3
Target: Ras GTPase-activating protein-binding protein 1, full length (G3BP1, Homo sapiens, UniProt Q13283)
Chain of UniProt Q13283 (whole entry, looked up): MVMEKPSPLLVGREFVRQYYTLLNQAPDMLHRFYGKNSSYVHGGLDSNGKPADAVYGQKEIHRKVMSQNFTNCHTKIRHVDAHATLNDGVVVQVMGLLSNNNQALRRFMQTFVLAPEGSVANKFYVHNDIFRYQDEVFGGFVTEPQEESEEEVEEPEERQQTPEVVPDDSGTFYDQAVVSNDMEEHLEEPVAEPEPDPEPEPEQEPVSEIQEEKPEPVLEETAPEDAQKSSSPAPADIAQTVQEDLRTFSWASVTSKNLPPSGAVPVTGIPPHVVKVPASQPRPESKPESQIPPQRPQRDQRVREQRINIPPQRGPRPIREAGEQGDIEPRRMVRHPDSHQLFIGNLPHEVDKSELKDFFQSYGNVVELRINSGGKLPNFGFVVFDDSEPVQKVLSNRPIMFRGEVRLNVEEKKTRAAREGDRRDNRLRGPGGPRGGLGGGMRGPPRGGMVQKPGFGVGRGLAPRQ
Technique: RNA Bind-n-Seq
Form: RNA
Sample: in vitro
Tested at: 200 nM
Setting: whole 134-nt RNA, ends assumed
Together with: 150 mM LiCl
Baseline: input library
Direction: higher = stronger binding
Each molecule: 7-deaza-guanosine replaces G
The log2 enrichment of `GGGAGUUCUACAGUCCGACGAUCCCUGUGCUACACAUCGUAUGUACCGAAUCGGGAAAAAAGGAAAAAAGGGGAAAAAAGGGGAAAGUAUUAUGUUACGCCGUUCGGAUCUGCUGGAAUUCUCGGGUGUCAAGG` is reported as 0.249.
`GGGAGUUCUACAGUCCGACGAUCUCCUCAAGUCCUGUGCUACACAUCGUAUGUACCGAAUCGGCCGGCCGGCCGGAAAGUAUUAUGUUACGCCGUUCGGAUCUGCACUUCCAGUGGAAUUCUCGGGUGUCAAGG` has a log2 enrichment of 1.52.
`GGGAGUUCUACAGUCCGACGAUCUGGGAGGUGGAUUUUGUUUAUUUUUUUAGCUCAUUUCCAGGGGUGAGAAUUUUUUUUUAAUAUGUGUCAUGAAUAAAGUUGUUUUUGAAAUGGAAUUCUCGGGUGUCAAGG` has a log2 enrichment of 0.0912.
With `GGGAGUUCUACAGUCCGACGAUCUCCUCAAGUCCUGUGCUACACAUCGUAUGUACCGAAUCGGGGAGGAGGGAGGAAAGUAUUAUGUUACGCCGUUCGGAUCUGCACUUCCAGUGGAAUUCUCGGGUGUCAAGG` the log2 enrichment was 0.15.
The log2 enrichment of `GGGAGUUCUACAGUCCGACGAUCCCUCAAGUCCUGUGCUACACAUCGUAUGUACCGAAUCGGUUGGGGUUGGUUGGAAAGUAUUAUGUUACGCCGUUCGGAUCUGCACUUCCAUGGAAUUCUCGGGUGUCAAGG` is reported as 0.386.
`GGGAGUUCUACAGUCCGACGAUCCCUGUGCUACACAUCGUAUGUACCGAAUCGGGAAAAAAGGGAAAAAAGGGGAAAAAAGGGGAAAGUAUUAUGUUACGCCGUUCGGAUCUGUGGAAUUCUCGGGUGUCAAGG` gave a log2 enrichment of 0.422.
The log2 enrichment of `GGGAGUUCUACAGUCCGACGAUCUCCUGUGCUACACAUCGUAUGUACCGAAUCGGGAAAGGGUUUUUUUGGGUUUUUUUGGGAAAGUAUUAUGUUACGCCGUUCGGAUCUGCAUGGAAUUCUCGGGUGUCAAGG` is reported as -0.992.
The log2 enrichment of `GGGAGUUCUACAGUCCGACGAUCAAGUCCUGUGCUACACAUCGUAUGUACCGAAUCGGGAGGGAAAAAAAGGGAAAGGGAAAGUAUUAUGUUACGCCGUUCGGAUCUGCACUUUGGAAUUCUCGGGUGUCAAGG` is reported as 0.151.
For `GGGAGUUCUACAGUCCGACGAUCUGGGAGGUGGAUUUUGUUUAUUUUUUUAGCUCAUUUCCAGGGGUGGGAAUUUCUUUUUAAUAUGUGUCAUGAAUAAAGUUGUUUUUGAAAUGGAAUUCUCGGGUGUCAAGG`, the log2 enrichment was -0.415.
`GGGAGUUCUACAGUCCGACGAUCGUCCUGUGCUACACAUCGUAUGUACCGAAUCGGGAAAAAGGAAAAAGGGGAAAAAGGGGAAAGUAUUAUGUUACGCCGUUCGGAUCUGCAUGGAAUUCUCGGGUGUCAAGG` has a log2 enrichment of 0.0692.
With `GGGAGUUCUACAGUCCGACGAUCUAACUUUAGAGGAGGAUCUGAUGGAUAUGGCAGUGGACGUGGAUUAGGGGAUGGCUAUAAUGGGUAUGGAGGAGGACCUGGAGGUGGCAAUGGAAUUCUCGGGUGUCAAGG` the log2 enrichment was -0.0728.

Series 4
Target: Sal-like protein 4, full length isoform B (SALL4, Homo sapiens, UniProt Q9UJQ4-2, residues 1-616)
Technique: universal PBM
Form: double-stranded DNA, one strand shown
Sample: in vitro
Tested at: not given
Setting: 8-mer, flanks averaged, mean of replicates
Direction: higher = stronger binding
With `GGTCTAGA` the E-score was -0.046.
The E-score of `ACGAAAGG` is reported as 0.0356.
`AAAGTGAG` gave an E-score of 0.0531.
The E-score of `GCAGCATA` is reported as -0.0423.
`AGGTTGCC` has an E-score of -0.218.
The E-score of `ATTGCGCG` is reported as 0.0245.
With `AACGATAA` the E-score was 0.167.
For `ATGTGGAC`, the E-score was 0.0557.
`ATTTCGAA` gave an E-score of 0.259.
For `CATCGTGG`, the E-score was -0.282.
`TCATTTCA` gave an E-score of 0.231.
With `TCCCACGA` the E-score was -0.18.
With `CAAACGCG` the E-score was -0.152.
`CAGGCCAG` has an E-score of -0.288.
For `AATCAGAC`, the E-score was 0.0947.
The E-score of `GGTTAGTA` is reported as 0.00156.
The E-score of `GACATAGC` is reported as 0.159.
`GGGAATTA` has an E-score of 0.231.
The E-score of `TCACCTAA` is reported as 0.0117.
`CATTAAGC` has an E-score of 0.0435.
`CGGATGTA` has an E-score of -0.0414.
`AATAATGT` has an E-score of 0.357.
`CTAGGAAC` has an E-score of -0.121.
With `AAACTGTG` the E-score was -0.0195.
`CATGCGGC` gave an E-score of -0.119.

Mixed results
With `PhoQ, residues 284 288 289 292 302 303 TAVSDG` the fold induction was 1.22 (PhoP, residues 12 14 15 18 19 HEGLL (Escherichia coli, UniProt P23836); Sort-seq, refers to: YFP reporter; E. coli; PhoQ-PhoP variant library, together with: 10 µM Mg2+; baseline: high Mg2+ state, higher = stronger signaling).

Some of these lines once more (series 2):
`ACCAGTAA` gave an E-score of -0.0787.
`ATAGCTTA` has an E-score of -0.0383.
`CCTTTATA` gave an E-score of -0.13.
`ACCGTTTG` gave an E-score of 0.114.
The E-score of `AACCTGAA` is reported as -0.184.
`ACTATCCA` gave an E-score of -0.0302.
`AGAGACCC` gave an E-score of -0.0229.
With `ACCTATAG` the E-score was -0.185.
For `TAGGTGGA`, the E-score was -0.278.
For `ACCCGACA`, the E-score was 0.0934.
